Published values gathered from unrelated publications.
Compare with care: the assays were run in different laboratories.
Effect on: cell growth or viability

Compound | cell line | technique | concentration | time | viability [%]
COc1ccc(NC(=O)c2c(Nc3ccccc3)sc(C(=O)NN=Cc3ccc(C)cc3)c2NC(C)=O)cc1 | HCT-116 | SRB | 10 µM | 48 h | 76.3
O=C(Nc1ccc(Oc2nnc(-c3ccc(Cl)cc3)c3ccccc23)cc1)c1ccccc1 | MCF7 | MTT | 2.5 µM | 24 h | 6.6
CC(C)(C)c1nc(-c2cccc(NS(=O)(=O)c3c(F)cccc3F)c2F)c(-c2ccnc(N)n2)s1 | SK-MEL-23 | MTT | 25 µM | 48 h | 44
Cc1c(Cc2ccccc2)c(=O)oc2c(C)c(OCC(=O)NN=Cc3ccco3)ccc12 | MDA-MB-231 | MTT | 1000 µg/mL |  | 1.07
COc1ccc(NC(=O)c2c(Nc3ccccc3)sc(C#N)c2NC(=O)CNc2ccc([N+](=O)[O-])cc2)cc1 | HCT-116 | SRB | 1 µM | 48 h | 71.4
CC(=NNC(=O)c1ccc(N)cc1)c1ccc(Nc2nnc(-c3ccc(Cl)cc3)c3ccccc23)cc1 | HepG2 | MTT | 1.25 µM | 24 h | 46
COc1ccc(NCC(=O)Nc2c(C#N)sc(Nc3ccccc3)c2C(=O)Nc2ccc(OC)cc2)cc1 | HCT-116 | SRB | 100 µM | 48 h | 63.3
O=C(Nc1ccccc1)Nc1ccc(Oc2nnc(-c3ccc(Cl)cc3)c3ccccc23)cc1 | HepG2 | MTT | 2.5 µM | 24 h | 5.21
CCc1c(C)c2ccc(OCC=Cc3ccccc3)c(C)c2oc1=O | MDA-MB-231 | MTT | 31.25 µg/mL |  | 100
CC(=NNC(=O)c1ccccc1Br)c1ccc(Nc2nnc(-c3ccc(Cl)cc3)c3ccccc23)cc1 | HepG2 | MTT | 5 µM | 24 h | 4.4
COc1ccc(NC(=O)c2c(Nc3ccccc3)sc(C(=O)NN=Cc3cc(OC)c(OC)c(OC)c3)c2NC(C)=O)cc1 | HCT-116 | SRB | 1 nM | 48 h | 99
COc1ccc(NC(=O)Nc2ccc(-c3cn(Cc4ccc(Cl)cc4)nn3)cc2)cc1 | Huh-7 | CCK-8 | 50 µM | 48 h | 84.6
COc1ccc(NC(=O)c2c(Nc3ccccc3)sc(C#N)c2NC(=O)CNc2ccc(Br)cc2)cc1 | HCT-116 | SRB | 100 µM | 48 h | 45.4
CC(=O)Nc1ccc(Oc2nnc(-c3ccc(Cl)cc3)c3ccccc23)cc1 | HepG2 | MTT | 5 µM | 24 h | 6.46
COc1ccc(NC(=O)NCc2cn(Cc3ccc(C)cc3)nn2)cc1 | Huh-7 | CCK-8 | 50 µM | 72 h | 91.2
CC(=NNC(=S)Nc1ccccc1)c1ccc(Nc2nnc(-c3ccc(Cl)cc3)c3ccccc23)cc1 | HepG2 | MTT | 2.5 µM | 24 h | 22.5
O=C(Nc1ccccc1)Nc1ccc(Oc2nc3ccccc3n3cnnc23)cc1 | MDA-MB-231 | MTT | 12.5 µM | 24 h | 83.6
S=C(Nc1ccccc1)Nc1ccc(Oc2nnc(-c3ccc(Cl)cc3)c3ccccc23)cc1 | HepG2 | MTT | 0.312 µM | 24 h | 98.7
COc1ccc(C=NNC(=O)c2sc(Nc3ccccc3)c(C(=O)Nc3ccc(OC)cc3)c2NC(C)=O)cc1 | HCT-116 | SRB | 1 nM | 48 h | 99.4
CCCOc1ccc2c(C)c(CC)c(=O)oc2c1C | MDA-MB-231 | MTT | 62.5 µg/mL |  | 99.8
Cc1ccc(C(CS(=O)(=O)c2ccccc2)=NNC2=NC(=O)C(=NNc3ccc([N+](=O)[O-])cc3)S2)cc1 | SK-MEL-23 | MTT | 1.6 µM | 48 h | 67.9
